Results from different studies.
Protocols differ between the studies behind these lines. ± gives the spread as reported.
Cell line: NIH3T3

SMILES	test	conditions	IC50
O=C1Nc2ccc(-c3ccc(-c4ccc(O)cc4)cc3)cc2/C1=C/c1ccc(N2CCNCC2)cc1	cell growth or viability, WST-1	48 h	1.44 µM
Oc1ccc(-c2csc(Cc3ccccc3)n2)c(O)c1	cell growth or viability, resazurin	72 h	13.9 µM
CN1CCN(C(=O)c2ccc(-c3ccc4c(c3)/C(=C/c3ccc(N5CCNCC5)cc3)C(=O)N4)cc2)CC1	cell growth or viability, WST-1	48 h	1.58 µM
O=[N+]([O-])c1ccc(/N=N/c2ccc(O)c(O)c2)cc1	cell growth or viability, resazurin	72 h	2.77 µM
O=C1Nc2ccc(-c3ccc(C(=O)N4CCCCC4)cc3)cc2/C1=C/c1ccc(N2CCNCC2)cc1	cell growth or viability, WST-1	48 h	0.211 µM
Cc1ccc(=O)n(-c2ccc(NC(=O)[C@H](C)N(C)C)cc2)c1	cell proliferation, CCK-8	–	247 ± 3.8 µM
Cc1c(C)c(C)[c-](C)c1C.[Cl][Ir]1[O]C(=Nc2c(-c3ccccc3)cccc2-c2ccccc2)c2cccc[n+]21	cell growth or viability, SRB	24 h	60 µM
O=c1oc2ccccc2cc1O	hyaluronan secretion	72 h	146 ± 92.4 µM
C[C@H](C(=O)Nc1ccc(Cn2cc(C(F)(F)F)ccc2=O)cc1)N(C)C	cell growth or viability, CCK-8	–	441 µM
CO[C@H]1N(OC)c2ccccc2[C@@]12CN=C(Nc1cc(C(F)(F)F)cc(C(F)(F)F)c1)S2 (relative stereo)	cell viability, MTS	72 h	60.6 ± 3.35 µM
Cc1c(C)c(C)[c-](C)c1C.Cc1cccc(C)c1[N]1C(=O)c2cccc[n+]2[Ir]1[Cl]	cell growth or viability, SRB	24 h	45 µM

Repeated from above:
SMILES	test	conditions	IC50
O=[N+]([O-])c1ccc(/N=N/c2ccc(O)c(O)c2)cc1	cell growth or viability, resazurin	72 h	2.77 µM
O=C1Nc2ccc(-c3ccc(C(=O)N4CCCCC4)cc3)cc2/C1=C/c1ccc(N2CCNCC2)cc1	cell growth or viability, WST-1	48 h	0.211 µM
